Assay results collected from several papers.
Parts stem from different laboratories: compare values within a part only. Substitutions count along the parent as printed.

Sample 1 — target: CEBPE, bZIP domain (human); method: DHFR protein complementation; sample: yeast; relative to: wild-type JUN-FOS pair; reading: higher = stronger binding; quantity: binding fitness
Notes: single substitutions, most at no-binding floor
Parent: JUN, bZIP domain (human); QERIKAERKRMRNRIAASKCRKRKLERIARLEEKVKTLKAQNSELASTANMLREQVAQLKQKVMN; partner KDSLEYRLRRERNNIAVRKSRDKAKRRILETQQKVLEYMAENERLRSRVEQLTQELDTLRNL
K39I: -1.12 natural log
E54W: -1.36 natural log
K34V: -1.26 natural log
Q55F: -1.49 natural log
K36T: -1.27 natural log
L38S: -1.49 natural log
S43T: -0.951 natural log
K36N: -1.18 natural log
L31T: -1.44 natural log
L52D: -1.42 natural log
K36E: -1.02 natural log

Sample 2 — method: protein-binding microarray; form: double-stranded DNA, one strand shown; sample: in vitro; concentration: 250 nM; notes: 60-bp whole probe; together with: salmon DNA 0.4 mg/ml; relative to: random background probes; reading: higher = stronger binding; quantity: log fluorescence; constant ends, left off below: GCCTAGCAC … GTCTTGATTCGCTTGACGCTGCTG
Target: Interferon regulatory factor 5, full length, phosphomimetic (IRF5, Homo sapiens, UniProt Q13568-2, residues 1-514, K96S/S451D/S453D/S456D/S462D)
TTAGGATTGGGGACTGGGTTAGTGCTA: -0.377 z-score
TCATTACTTTCTATCTCACTGTGCTAG: 5.59 z-score
GACGAACTAAGTCTCGAGACGTGCTAG: -0.108 z-score
GACGGTAACGGTTTCGGGACGTGCTAG: 2.91 z-score
TTAGGATTGGGGTTTCGGTTAGTGCTA: 6.83 z-score
TTAGGTAACCTTATCCTTTAGTGCTAG: -0.0691 z-score
GACGGTATCGGGTATCGGTACGTGCTA: 5.4 z-score
TCACTTTCTGTTTTCTCACTGTGCTAG: 8.95 z-score
GACGGTTTCCTGCTGCTGACGTGCTAG: 0.338 z-score
GACGATCTCACTTTCGAGACGTGCTAG: 6.41 z-score
AGAGGCGGGAGGGGGCGGGGGTGCTAG: 2.56 z-score
CTGGCCTGGGGTCTGCAGAGGTGCTAG: -0.803 z-score
ACCATTTTGGTTTTCCTTATGTGCTAG: 1.36 z-score
GTGAGTCCCGAGAATGGTGTGGTGCTA: -0.524 z-score
TTAGGTATCCTACTGCCTTAGTGCTAG: -0.0106 z-score
GACGAAGTGAGTCTCGAGACGTGCTAG: -0.224 z-score
GACGGTATCGACTTTCGGGGCGTGCTA: 5.7 z-score
TTAGATATCAGTATCGATTGGTGCTAG: 7.26 z-score
AAAATTTTGCTTCTAGAACAGTGCTAG: 0.774 z-score

Sample 3 — method: EMSA with sequencing; form: double-stranded DNA, one strand shown; sample: in vitro; concentration: 10 and 20 nM; relative to: negative control set to 0; reading: higher = stronger binding; quantity: normalised bound fraction
Target: Hepatocyte nuclear factor 3-alpha (Foxa1, Mus musculus, UniProt P35582, residues 1-468, full length assumed)
Notes: whole designed probe, mean of two concentrations, ends assumed
Construct (chain): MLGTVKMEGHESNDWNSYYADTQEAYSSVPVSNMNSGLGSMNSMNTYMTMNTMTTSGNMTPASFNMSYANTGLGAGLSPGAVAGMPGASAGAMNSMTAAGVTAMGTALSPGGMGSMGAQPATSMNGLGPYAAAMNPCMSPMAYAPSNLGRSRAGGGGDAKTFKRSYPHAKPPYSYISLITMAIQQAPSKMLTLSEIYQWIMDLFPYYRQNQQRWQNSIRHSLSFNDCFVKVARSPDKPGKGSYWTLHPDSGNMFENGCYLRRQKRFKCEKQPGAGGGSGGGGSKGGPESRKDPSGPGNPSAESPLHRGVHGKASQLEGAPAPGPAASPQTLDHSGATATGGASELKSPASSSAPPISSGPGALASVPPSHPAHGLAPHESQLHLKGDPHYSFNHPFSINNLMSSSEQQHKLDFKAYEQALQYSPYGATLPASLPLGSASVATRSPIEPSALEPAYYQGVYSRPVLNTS
GTGAGCGGTGCCCATTGATGGGGAACCAGAGGGGCTCTCAGTCCACTCTGCGGACTGCTGACTGAGACTTTGCAGACCTGCTCCCCTTCTCCCTGCTACCTGCCTGCCGGAAGAGTTGAGTCAACACAGCCCACCTCCTGCACCCAGAGCTGTGAGTCACAGTTGTTCAAACACGGAGGTGTGAATCACTCAACTTCTAGCCTTTGAGACATCTTGTGTTTTCACTGGGATCGTGGGGAC: 0.203 ratio
GTGAGCGGTGCCCATTGATGGGGAACAATTCATTACTAAGCATAAGATAGTATATGGCTATGGTGAAAGAAATAGTGACTTATGAAATAAATTGCTTTACTAAACAACTTTCTTTTTATGTTTACTTAGATTGCAAATTAGGCCTGGTACTTTCTTTGAGGACCATGATGATAAGAAAATATTTGTATCAATTATCTCCATGCTGTAGCCTAGATATAATTTCACTGGGATCGTGGGGAC: 0.455 ratio
GTGAGCGGTGCCCATTGATGGGGAACATAGAAATTAAACAGATATAAAACTAGTAAACTCAGATAAAACTAGCACATATGTGAGAGCAAATTCAGCAAAACAAACCTCTGAATTTCAAAGTAAACATGTGCATGAAGATGTGGAAACAGGGTCAAACTCCACCAATGTTCTGTGAGTCACATATTTACTCTGAGATTCAGGGGTCAAGGGGGAAAGTTATTTCACTGGGATCGTGGGGAC: 0.321 ratio
GTGAGCGGTGCCCATTGATGGGGAACTCTTTCCCCTTCTATGACTTGCAAATTTATATTTCTCTTAACAACCATAAAAACAACTACAGTTGCTGAAGAAATAATGACTCAGAAAGCAAATGTTTACTTTTAAATATGAGCAACTTTACATCTAATGCCAATGCCTGATAAAGAGAAATTTATAGTAAACAAAAAATATGGCCAAAATCACTTATTTAGCTTTCACTGGGATCGTGGGGAC: 0.378 ratio

Sample 4 — method: RNA Bind-n-Seq; form: RNA; sample: in vitro; concentration: not given; relative to: input RNA pool; reading: higher = stronger binding; quantity: bound/input enrichment
Target: RING finger protein unkempt homolog, zinc fingers 1-6, GST-SBP tag (UNK, Homo sapiens, UniProt Q9C0B0, residues 30-357)
Notes: RNA with constant flanks, human-mouse chimeric sites, ends assumed
Constant ends, left off below: GGGAGUUCUACAGUCCGACGAUC … CAACAGAGGAUUGAGCAUCA
Construct (chain): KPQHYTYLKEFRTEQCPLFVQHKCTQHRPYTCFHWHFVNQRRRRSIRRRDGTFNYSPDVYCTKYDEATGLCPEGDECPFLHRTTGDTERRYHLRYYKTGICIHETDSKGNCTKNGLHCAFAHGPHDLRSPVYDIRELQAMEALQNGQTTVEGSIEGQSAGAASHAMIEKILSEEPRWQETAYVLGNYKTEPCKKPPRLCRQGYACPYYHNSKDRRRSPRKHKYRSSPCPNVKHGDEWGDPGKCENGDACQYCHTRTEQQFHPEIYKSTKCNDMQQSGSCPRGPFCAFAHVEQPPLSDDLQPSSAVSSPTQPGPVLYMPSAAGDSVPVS
UACAUCACCAAUGUCCUACAAAAUCCUGACUUGGCUCUGAGAAUGGCUGUACGUAAUAACUUAGCUGGUGCUGAAGAACUCUUUGCCCGGAAAUUUAAUGCUCUCUUCGCCCAGGGAAAC: 0.34 ratio
GUAGCUGGGACUACAGAAAUGCUGGUAAUUUCAGUCACUUGCUGAUGACUUCUGAUGUCCCAGCAAAUGUUGGCAUUCACUGCAAUACUGUGAAGACUUCUGAGGACCCACGUCUAAGGU: 0.109 ratio
UGUGAACUGUCUCUUGAGAUCUAAAAACAAGAUGACUUUUCCUGGCACAUAUUCCAAAGCAUAGACUUUGUUGCCUGCUGCUUAUUGUCUAAUUUACAGGGAUAUUUAAUUUUGUCAGGU: 0.234 ratio
CUUAAUGUUAAUAUUUUUGAAUAAAUGAAGCUAAAAUGUCUGCUUUUGGUACUACAUGCAUUAAUAAAAGGUUAAGUUUUGUUUUCCACUGAAGUACUAUUUAACAUCUCAGAAAAAAAC: 0.225 ratio
CCCCAAUACCAUUUGCAGGUCUGGAACUGCACUCUCUUUAAAGUUUUACAUGUAUACAUUUUAGGGCUGUAGAUUUAUUUUCCUGGUUUUGUUUUUCAUUGCUGACUUUUGAGCACAGAA: 1.75 ratio
UUUCUACUGCAGCAAACGAUGCUAAGAGUGAAGGAUCCUAAGAAGUCCCUGGAUUUUUAUACGAGGGUUCUUGGACUGACCCUCCUGCAGAAGCUUGACUUCCCUGCUAUGAAGUUCUCG: 0.232 ratio
CAGGGCACAGCACCUACCCCCUCCUCCUUUCCACACCUGCAAACUCUUUUACUUGGGCUGAAUAUUUAGUGUAAUUACAUCUCAGCUUUUGAGGGCUCUGUGGCAAAUUCCCGGAUUAAA: 1.1 ratio
AGGAGGAGGUUAAAGGGUGAAAAUGGGGUGGAAGACUGUGUCAUGGCCCUAGAAACCCUGUUCAGUGUCCUGCUUUCUCUGUGCAGACUGAUGGCCCCUUACACGCCCUUUCUGACUGAG: 0.0504 ratio

Sample 5 — target: CCNB2, cyclin fold, Cln2 fusion (human); method: yeast growth competition, sequencing; sample: yeast; notes: weak parent motif; relative to: not given; reading: higher = stronger binding; quantity: normalised enrichment score
Parent: DTL docking peptide (human); PSSMRKICTYFHR; partner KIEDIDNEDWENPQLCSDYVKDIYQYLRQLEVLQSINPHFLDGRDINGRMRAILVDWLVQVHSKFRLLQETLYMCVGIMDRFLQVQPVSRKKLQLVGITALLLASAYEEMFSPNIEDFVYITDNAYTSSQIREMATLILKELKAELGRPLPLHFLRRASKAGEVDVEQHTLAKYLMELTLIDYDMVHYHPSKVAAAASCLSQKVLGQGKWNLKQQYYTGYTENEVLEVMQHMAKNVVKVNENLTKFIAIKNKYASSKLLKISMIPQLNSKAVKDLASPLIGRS
S2A: 0.415
M4A: 0.23
R13A: 0.65
Y10A: 0.392
T9A: -0.0308
I7A: -0.2

Some of these lines once more (sample 5):
M4A: 0.23
R13A: 0.65
T9A: -0.0308
I7A: -0.2
